Measurements pooled from the literature.
Every numbered part comes from another study and shows a few of its results, in no order. Positions count from the first letter of the parent shown.

Block 1 — target: CCND1, cyclin fold, Cln2 fusion (human); technique: yeast growth competition, sequencing; matrix: yeast; notes: weak parent motif; baseline: not given; reading: higher = stronger binding
Parent: SAMHD1 docking peptide (human); ASKSRVQLFKDDP; partner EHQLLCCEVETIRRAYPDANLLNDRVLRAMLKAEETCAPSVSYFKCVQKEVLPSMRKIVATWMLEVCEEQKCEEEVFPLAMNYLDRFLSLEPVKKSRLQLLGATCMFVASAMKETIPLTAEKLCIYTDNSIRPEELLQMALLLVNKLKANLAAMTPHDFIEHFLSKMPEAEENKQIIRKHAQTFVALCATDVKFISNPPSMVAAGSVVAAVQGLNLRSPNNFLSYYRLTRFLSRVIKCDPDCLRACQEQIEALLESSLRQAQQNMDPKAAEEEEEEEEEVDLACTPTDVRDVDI
Change	normalised enrichment score
ASKSRVQLFKDMP [D12M]	0.113
ASKSRVQLFKCDP [D11C]	0.318
ASKSRVQTFKDDP [L8T]	0.327
ASKKRVQLFKDDP [S4K]	-0.00647
ASKSRVQLFKDKP [D12K]	0.0492
ASKSRVQLLKDDP [F9L]	0.166
ASKSRVQLFKKDP [D11K]	0.48
ASKSRVQLFQDDP [K10Q]	0.785
ASKSRPQLFKDDP [V6P]	-0.0266
ASKSRSQLFKDDP [V6S]	-0.466
APKSRVQLFKDDP [S2P]	0.187
ASKSRVQLYKDDP [F9Y]	-0.0543
AVKSRVQLFKDDP [S2V]	0.627
AFKSRVQLFKDDP [S2F]	0.386
ASKSRVWLFKDDP [Q7W]	0.373
ASKSRVQLFKGDP [D11G]	0.321
ASKSRVYLFKDDP [Q7Y]	0.0807
ASQSRVQLFKDDP [K3Q]	0.646
ASKSRVQLFKDFP [D12F]	-0.00662
ASKSRVQQFKDDP [L8Q]	0.0437
ASKSRVQLFKDTP [D12T]	0.381
ASKSVVQLFKDDP [R5V]	0.91
ASKMRVQLFKDDP [S4M]	-0.0961
ASKSRVQLFKDYP [D12Y]	0.629
ADKSRVQLFKDDP [S2D]	0.408

Block 2 — technique: DHFR PCA, deep sequencing; matrix: yeast; together with: (+)-ABA 0.11 µM; baseline: wild-type fitted maximum; reading: higher = stronger binding
Target: ABI1, truncated, D143A, DHFR fusion (Arabidopsis thaliana)
Notes: methotrexate growth selection, single substitutions
Parent: PYL1, truncated, DHFR fusion (Arabidopsis thaliana); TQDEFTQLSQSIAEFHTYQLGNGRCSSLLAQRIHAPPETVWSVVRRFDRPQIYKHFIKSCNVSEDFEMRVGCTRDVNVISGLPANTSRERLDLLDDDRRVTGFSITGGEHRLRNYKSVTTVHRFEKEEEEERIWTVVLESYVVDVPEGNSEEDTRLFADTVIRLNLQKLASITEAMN
Change	relative binding score
E147F	15.5%
H122G	-0.398%
V136H	-0.405%
R49Q	50.1%
L164T	26.2%
S87W	31.5%
E64A	45.1%
V137E	-1.63%
F47T	0.173%
H16K	0.802%
L8R	-0.422%
D153Q	-0.742%
V136M	29.1%
S59F	1.34%
R69P	1.75%
R155L	6.24%
A13V	11%
T17C	4.49%
Q7R	18.2%
S26T	38.4%
R99E	-5.33%
A30H	16.5%
V78D	7.59%
Y18C	2.93%
L82N	12.9%

Block 3 — technique: protein-binding microarray; form: double-stranded DNA, one strand shown; matrix: in vitro; concentration: 940 nM top; notes: 60-bp whole probe; together with: salmon DNA 0.4 mg/ml; baseline: random background probes; reading: higher = stronger binding; all sequences stand within: GCCTAGCAC … GTCTTGATTCGCTTGACGCTGCTG
Target: Interferon regulatory factor 5, full length, phosphomimetic (IRF5, Homo sapiens, UniProt Q13568-2, residues 1-514, S451D/S453D/S456D/S462D)
Sequence	fitted relative affinity
TCAAGTTTTCTTTTCATACTGTGCTAG	1.33 z-score
TTTGGTTTCTGGTTTATTGAGTGCTAG	6.09 z-score
TCAGTCATCTATAATGGAACTGTGCTA	0.0936 z-score
GACGGTATCGGTCTCGGGAAGTGCTAG	8.42 z-score
TCAACTTTGGCATGTCTTACTGTGCTA	-0.148 z-score
TTAGGTATCGAGACTGGGTTAGTGCTA	4.93 z-score
TTAGGTATCGAAACTGGGTTAGTGCTA	6.54 z-score
GACGGGATCCTTTTCCTGACGTGCTAG	-0.307 z-score
TTAGATATCAGTTTTGATTAGTGCTAG	0.542 z-score
GACGGTTTCGGACTCGGGACGTGCTAG	6.15 z-score
GTCTGTTTCCTCTTTCTTTGGTGCTAG	1.98 z-score
TTAGAAATGGGGACTGGATTAGTGCTA	0.168 z-score
CTTCATGTTGCTCTCCGGGGGTGCTAG	1.04 z-score
TCATATATATAATATATAACTGTGCTA	0.362 z-score
ACTTTTTTCTGATTGAATCTGTGCTAG	0.726 z-score
TTAGGTATGGGGTTTCGGTTAGTGCTA	5.94 z-score
GCTCTCTTCTGCTTCCTCAGGTGCTAG	1.36 z-score
GACGGTTTCGGTCTCGAGACGTGCTAG	12.8 z-score

Block 4 — technique: protein-binding microarray; form: double-stranded DNA, one strand shown; matrix: in vitro; concentration: not given; reading: higher = stronger binding
Target: Hepatocyte nuclear factor 3-beta, forkhead domain (FOXA2, Homo sapiens, UniProt Q9Y261, residues 142-269)
Notes: k-mer, scored over probes, only values ≥0.25
Target sequence (chain): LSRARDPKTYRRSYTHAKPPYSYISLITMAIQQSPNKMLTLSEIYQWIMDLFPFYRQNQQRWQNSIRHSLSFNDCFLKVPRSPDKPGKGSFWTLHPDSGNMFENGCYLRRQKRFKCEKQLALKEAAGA
Sequence	E-score
ACATTCAT	0.291
ATCTACAG	0.265
AACAGTAT	0.347
ATACTGAT	0.301
ATTTACAC	0.295
TTAATAAA	0.257
GTACAATA	0.298
AAAGAATA	0.269
CGTAATAC	0.266
CTATTTAC	0.311
GATATTAC	0.293
CAACTGTA	0.276
ATGTAAAT	0.319
GTGTAATA	0.259
TATTTGCA	0.352
GAATGATA	0.255
CTTATATA	0.332
CATAACAC	0.293
GGTTGTAA	0.308
ATATAAGA	0.376
CTTATATC	0.286
ATGTCTAA	0.31
TACAGTGA	0.274
ATTAATGG	0.303
ATCATGAC	0.254
